# Experimental data of several laboratories.
# A part holds a random share of what one study measured. “And” joins repeats or separate records; there may be more than shown.
# Sequence of UniProt Q9NWZ3 (whole entry, looked up): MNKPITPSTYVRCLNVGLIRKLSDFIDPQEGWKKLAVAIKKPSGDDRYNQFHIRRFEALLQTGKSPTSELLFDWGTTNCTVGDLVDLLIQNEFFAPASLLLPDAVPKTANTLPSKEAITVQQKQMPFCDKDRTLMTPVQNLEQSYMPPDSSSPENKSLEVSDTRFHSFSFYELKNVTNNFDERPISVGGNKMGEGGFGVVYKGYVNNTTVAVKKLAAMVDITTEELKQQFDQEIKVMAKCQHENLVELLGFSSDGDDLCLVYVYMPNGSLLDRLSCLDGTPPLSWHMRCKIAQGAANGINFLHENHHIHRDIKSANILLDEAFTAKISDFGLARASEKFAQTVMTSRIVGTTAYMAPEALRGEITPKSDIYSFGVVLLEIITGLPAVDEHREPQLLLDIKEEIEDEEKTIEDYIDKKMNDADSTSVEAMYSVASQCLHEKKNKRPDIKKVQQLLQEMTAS
# Sequence of UniProt O15264 (whole entry, looked up): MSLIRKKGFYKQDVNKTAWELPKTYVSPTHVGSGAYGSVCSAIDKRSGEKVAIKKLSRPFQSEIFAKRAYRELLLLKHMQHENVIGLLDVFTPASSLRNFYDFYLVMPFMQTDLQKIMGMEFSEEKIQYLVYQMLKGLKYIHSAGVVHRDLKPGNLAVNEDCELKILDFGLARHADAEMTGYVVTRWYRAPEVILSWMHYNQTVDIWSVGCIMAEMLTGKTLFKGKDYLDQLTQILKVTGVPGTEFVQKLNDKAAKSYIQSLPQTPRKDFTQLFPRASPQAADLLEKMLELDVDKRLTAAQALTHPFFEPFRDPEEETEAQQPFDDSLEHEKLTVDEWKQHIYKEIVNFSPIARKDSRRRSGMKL
# Sequence of UniProt P54756 (whole entry, looked up): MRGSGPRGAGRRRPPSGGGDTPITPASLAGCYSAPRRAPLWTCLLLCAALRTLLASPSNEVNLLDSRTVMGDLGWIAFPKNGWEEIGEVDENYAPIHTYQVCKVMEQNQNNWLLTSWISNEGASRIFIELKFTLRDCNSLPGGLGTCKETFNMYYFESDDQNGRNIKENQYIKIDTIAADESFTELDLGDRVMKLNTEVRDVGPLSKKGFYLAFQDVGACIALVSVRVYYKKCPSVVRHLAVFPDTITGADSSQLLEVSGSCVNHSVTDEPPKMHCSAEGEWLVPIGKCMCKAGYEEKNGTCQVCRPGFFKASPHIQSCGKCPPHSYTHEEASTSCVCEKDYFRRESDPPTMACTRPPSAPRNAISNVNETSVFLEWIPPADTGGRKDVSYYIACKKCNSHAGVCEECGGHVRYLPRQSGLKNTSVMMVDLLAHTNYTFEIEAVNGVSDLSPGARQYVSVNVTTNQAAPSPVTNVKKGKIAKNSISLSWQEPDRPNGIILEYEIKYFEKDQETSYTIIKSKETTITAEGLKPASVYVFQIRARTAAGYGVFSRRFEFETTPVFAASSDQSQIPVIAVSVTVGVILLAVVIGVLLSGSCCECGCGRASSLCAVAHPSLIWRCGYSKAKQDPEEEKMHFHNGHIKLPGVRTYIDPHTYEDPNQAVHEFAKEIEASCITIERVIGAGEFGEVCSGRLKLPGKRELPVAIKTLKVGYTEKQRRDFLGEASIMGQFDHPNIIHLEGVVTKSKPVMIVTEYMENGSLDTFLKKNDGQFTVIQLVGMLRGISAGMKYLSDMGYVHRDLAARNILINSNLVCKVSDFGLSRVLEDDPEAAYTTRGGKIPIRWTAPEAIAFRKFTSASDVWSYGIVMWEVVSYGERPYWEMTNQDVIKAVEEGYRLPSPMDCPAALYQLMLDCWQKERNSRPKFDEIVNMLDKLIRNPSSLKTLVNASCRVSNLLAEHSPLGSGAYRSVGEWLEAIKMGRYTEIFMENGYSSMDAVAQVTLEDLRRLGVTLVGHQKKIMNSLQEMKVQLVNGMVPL
# Sequence of UniProt P68400 (whole entry, looked up): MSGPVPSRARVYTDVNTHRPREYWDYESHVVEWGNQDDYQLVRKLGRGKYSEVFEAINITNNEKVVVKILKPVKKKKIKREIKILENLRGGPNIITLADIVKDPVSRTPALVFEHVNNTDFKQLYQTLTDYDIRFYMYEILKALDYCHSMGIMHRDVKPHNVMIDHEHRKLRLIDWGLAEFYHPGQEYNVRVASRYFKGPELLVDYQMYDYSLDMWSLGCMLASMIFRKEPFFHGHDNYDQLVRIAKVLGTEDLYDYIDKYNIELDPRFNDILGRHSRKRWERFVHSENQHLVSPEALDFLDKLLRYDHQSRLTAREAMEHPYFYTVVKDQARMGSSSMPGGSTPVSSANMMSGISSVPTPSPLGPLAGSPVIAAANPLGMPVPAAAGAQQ
# Sequence of UniProt Q7KZI7 (whole entry, looked up): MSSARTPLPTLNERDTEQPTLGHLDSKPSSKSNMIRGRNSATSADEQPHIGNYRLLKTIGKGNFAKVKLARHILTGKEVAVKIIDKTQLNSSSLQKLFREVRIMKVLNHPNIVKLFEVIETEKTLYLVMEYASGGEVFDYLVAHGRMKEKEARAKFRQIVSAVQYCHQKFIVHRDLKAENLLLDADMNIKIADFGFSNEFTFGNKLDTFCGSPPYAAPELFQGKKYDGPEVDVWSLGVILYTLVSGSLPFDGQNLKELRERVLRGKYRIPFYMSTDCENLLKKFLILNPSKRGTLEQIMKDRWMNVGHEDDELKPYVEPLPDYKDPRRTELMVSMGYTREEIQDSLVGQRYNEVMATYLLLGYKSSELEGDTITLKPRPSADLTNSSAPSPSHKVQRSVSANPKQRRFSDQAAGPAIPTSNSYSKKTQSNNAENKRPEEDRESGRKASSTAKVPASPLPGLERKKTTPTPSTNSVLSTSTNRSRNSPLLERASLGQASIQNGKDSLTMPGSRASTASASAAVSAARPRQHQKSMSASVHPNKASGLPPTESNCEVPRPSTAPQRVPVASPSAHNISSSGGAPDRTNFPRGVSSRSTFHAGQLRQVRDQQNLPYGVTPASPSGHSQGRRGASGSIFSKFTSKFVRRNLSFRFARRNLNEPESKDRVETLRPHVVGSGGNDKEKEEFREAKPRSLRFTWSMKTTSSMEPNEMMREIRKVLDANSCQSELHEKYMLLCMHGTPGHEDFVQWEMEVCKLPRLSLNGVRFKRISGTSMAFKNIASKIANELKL
# Sequence of UniProt Q96PN8 (whole entry, looked up): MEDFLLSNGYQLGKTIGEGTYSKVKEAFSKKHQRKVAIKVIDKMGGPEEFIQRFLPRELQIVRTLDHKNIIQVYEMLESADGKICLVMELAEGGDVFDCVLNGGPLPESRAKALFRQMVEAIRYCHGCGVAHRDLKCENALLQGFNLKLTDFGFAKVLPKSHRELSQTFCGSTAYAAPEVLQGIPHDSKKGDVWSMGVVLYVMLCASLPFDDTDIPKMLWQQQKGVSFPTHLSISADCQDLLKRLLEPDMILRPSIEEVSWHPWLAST
# Sequence of UniProt O75582 (whole entry, looked up): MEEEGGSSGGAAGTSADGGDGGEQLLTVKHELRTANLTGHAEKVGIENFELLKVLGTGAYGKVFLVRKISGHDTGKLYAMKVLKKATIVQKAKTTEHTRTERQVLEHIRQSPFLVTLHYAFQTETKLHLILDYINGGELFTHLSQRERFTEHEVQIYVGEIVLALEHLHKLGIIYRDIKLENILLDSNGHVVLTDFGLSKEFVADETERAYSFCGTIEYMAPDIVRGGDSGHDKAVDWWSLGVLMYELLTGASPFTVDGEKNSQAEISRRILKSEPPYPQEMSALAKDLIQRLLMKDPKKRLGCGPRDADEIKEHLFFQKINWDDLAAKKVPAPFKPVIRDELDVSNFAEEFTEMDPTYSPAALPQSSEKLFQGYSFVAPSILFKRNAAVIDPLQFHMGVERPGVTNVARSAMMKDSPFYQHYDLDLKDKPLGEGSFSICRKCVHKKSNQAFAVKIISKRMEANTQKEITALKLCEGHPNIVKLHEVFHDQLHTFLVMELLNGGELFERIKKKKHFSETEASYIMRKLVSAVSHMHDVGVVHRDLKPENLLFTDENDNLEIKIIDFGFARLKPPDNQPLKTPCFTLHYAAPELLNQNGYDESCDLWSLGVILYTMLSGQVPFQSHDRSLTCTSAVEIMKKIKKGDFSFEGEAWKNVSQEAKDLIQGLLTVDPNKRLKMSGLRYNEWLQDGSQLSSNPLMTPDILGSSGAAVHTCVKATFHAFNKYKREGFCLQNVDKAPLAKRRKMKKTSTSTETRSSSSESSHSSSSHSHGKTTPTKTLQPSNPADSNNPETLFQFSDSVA
# Sequence of UniProt P07948 (whole entry, looked up): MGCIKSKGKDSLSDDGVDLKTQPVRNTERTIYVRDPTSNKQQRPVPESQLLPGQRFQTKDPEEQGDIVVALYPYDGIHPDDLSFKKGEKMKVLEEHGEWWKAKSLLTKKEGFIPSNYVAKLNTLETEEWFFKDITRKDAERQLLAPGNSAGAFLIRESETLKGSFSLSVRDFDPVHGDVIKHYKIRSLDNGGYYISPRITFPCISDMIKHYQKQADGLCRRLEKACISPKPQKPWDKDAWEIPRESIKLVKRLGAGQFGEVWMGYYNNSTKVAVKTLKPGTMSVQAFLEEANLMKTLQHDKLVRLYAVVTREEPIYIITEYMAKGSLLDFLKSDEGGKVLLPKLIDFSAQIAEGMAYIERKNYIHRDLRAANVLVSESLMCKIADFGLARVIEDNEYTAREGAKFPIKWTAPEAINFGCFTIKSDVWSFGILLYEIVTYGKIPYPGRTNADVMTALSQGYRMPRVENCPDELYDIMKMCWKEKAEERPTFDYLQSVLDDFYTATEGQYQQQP
# Sequence of UniProt P48729 (whole entry, looked up): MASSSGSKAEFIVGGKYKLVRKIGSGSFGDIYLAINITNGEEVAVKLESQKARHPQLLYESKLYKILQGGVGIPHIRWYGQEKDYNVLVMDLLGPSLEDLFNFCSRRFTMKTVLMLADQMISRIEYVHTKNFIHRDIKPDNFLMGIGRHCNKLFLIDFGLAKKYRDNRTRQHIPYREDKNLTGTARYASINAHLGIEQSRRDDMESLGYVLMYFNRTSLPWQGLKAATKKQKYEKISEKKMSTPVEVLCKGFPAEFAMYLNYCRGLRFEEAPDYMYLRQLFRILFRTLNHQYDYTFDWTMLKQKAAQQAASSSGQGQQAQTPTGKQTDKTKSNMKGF

# Series 1 — host: mouse; matrix: microsomes or S9; concentration: 2 µM; time: 0.5 h
SMILES,remaining compound [%]
CC(=O)c1c([S+]([O-])CCC(C)C)[nH]c2c(Cc3ccccc3)cccc2c1=O (stereo not drawn),0.669
Cc1cccc(C)c1C1=NOC(C)(CS(=O)(=O)C2=NOC(C)(C)C2)C1 (stereo not drawn),0.114
CN(C)C(=O)NC1CCC(Nc2ncnc3[nH]ccc(=O)c23)CC1 (stereo not drawn),98.9
COCCc1noc(C(C)n2ccnc2-c2cc(F)cc(F)c2)n1 (stereo not drawn),0.755
COCCNc1nc(N2CCCC2)nc2nccnc12,10.3
COCC(C)(C)c1noc(-c2cccc3nn[nH]c23)n1,27.2
O=C1Cn2nnc(C(=O)c3ccccc3)c2C2(CCCCC2)O1,89.5
CC(C)(C)c1nnc2ccc(N3CCCc4occc4C3)nn12,4.41
CNC(=O)C1CCN(c2nc(Nc3ccc4[nH]ncc4c3)nc(OC)n2)CC1,7.28
CC(C)=CCO[C@H]1CCOC[C@H]1Nc1ncc(F)c(N2CCOCC2)n1,0.0252
O=C1CCC2(C(=O)N3CCN(c4ncccn4)CC3)CCCC=C2N1C1CCCC1 (stereo not drawn),0.195
CCC[C@@H]1CN(c2nc(N(C)C)nc3c2CCCC3)C[C@H]1NS(C)(=O)=O,37.4
Cc1ccc(S(=O)(=O)c2nc(S(C)(=O)=O)sc2NC2CCS(=O)(=O)C2)cc1 (stereo not drawn),10.6
CC(=O)Nc1ccc(S(=O)(=O)N[C@H](C(=O)O)C2CCCCC2)cc1,> 100
COc1ccc(CN2Cc3c(Cl)ccnc3C2=O)cc1OC,0.556

# Series 2 — cell line: mouse MPNST tumor cells; technique: high-content nuclear imaging; item: cell number; concentration: 10 µM; time: 12 h; notes: mean of 2 replicates; baseline: plate mean; direction: higher = more cells
Compound,nuclei count
CC(C)NCC(O)c1cc(O)cc(O)c1 (stereo not drawn),1.51 z-score
CCOc1cc(N2CCC(O)CC2)ccc1Nc1ncc2c(n1)N(C)c1ccccc1C(=O)N2C,-2.12 z-score
COc1ccc(C2(O)CCC(N3CC[C@@H](NC(=O)CNC(=O)c4cccc(C(F)(F)F)c4)C3)CC2)cn1 (stereo partly drawn),3.19 z-score
COC(=O)Nc1nc2cc([S+]([O-])c3ccccc3)ccc2[nH]1 (stereo not drawn),0.569 z-score
Brc1c(NC2=NCCN2)ccc2nccnc12,-0.336 z-score and 1.25 z-score
COc1ccc(CC2c3cc(OC)c(OC)cc3CC[N+]2(C)CCC(=O)OCCCCCOC(=O)CC[N+]2(C)CCc3cc(OC)c(OC)cc3C2Cc2ccc(OC)c(OC)c2)cc1OC (stereo not drawn),-2.1 z-score
CNCCC(Oc1ccc(C(F)(F)F)cc1)c1ccccc1 (stereo not drawn),-4.6 z-score
OC(CCN1CCCCC1)(c1ccccc1)C1CC2C=CC1C2 (stereo not drawn),1.21 z-score
Cc1cc(C)c(N(Cc2ccccc2)S(=O)(=O)c2ccc(OCCNC(=O)c3cc4ccccc4o3)cc2)c(C(=O)NO)c1,1.23 z-score
O=C(Nc1ccc(Cl)cc1)Nc1cccc(-c2cccc(N3CCCC3)n2)c1,3.48 z-score
CC1(C)CCC[C@]2(C)[C@@H](C=O)C(C=O)=CC[C@@H]12,-1.14 z-score
CC(C)CNc1nc(-c2cccc3ncccc23)cn2c(-c3ccc(C(=O)NC4CC4)cc3)cnc12,-3.86 z-score
O=C(NCc1ccc2c(c1)OCO2)c1c(Cl)cccc1Cl,0.45 z-score

# Series 3 — read-out: cell-free assay; technique: competition with immobilised ligand; concentration: 1 µM
# SMILES: COc1ccc2c(O[C@@H]3C[C@H]4C(=O)N[C@]5(C(=O)O)CC5/C=C\CCCCC[C@H](NC(=O)OC5CCCC5)C(=O)N4C3)cc(-c3csc(NC(=O)C(C)C)n3)nc2c1C (stereo partly drawn)
target,remaining binding [%]
"Ribosomal protein S6 kinase alpha-5, N-terminal kinase domain (RPS6KA5, Homo sapiens, UniProt O75582)",100
"EPHA6 (Homo sapiens, UniProt Q9UF33)",100
"MAPK13 (Homo sapiens, UniProt O15264)",100
"ERBB2 (Homo sapiens, UniProt P04626)",97
"TAOK2 (Homo sapiens, UniProt Q9UL54)",98
"TBK1 (Homo sapiens, UniProt Q9UHD2)",86
"STK26 (Homo sapiens, UniProt Q9P289)",95
"MARK2 (Homo sapiens, UniProt Q7KZI7)",100
"IRAK4 (Homo sapiens, UniProt Q9NWZ3)",71
"NIM1K (Homo sapiens, UniProt Q8IY84)",83
"TIE1 (Homo sapiens, UniProt P35590)",100
"RET (Homo sapiens, UniProt P07949)",91
"Tyrosine-protein kinase ABL1, non-phosphorylated (ABL1, Homo sapiens, UniProt P00519, Q252H)",70
"TSSK3 (Homo sapiens, UniProt Q96PN8)",80
"Cyclin-dependent kinase 4, with cyclin D1 (CDK4, Homo sapiens, UniProt P11802)",74

# Series 4 — SMILES: CC(C)N(CCC(=O)c1ccc2ccccc2c1)Cc1ccccc1; read-out: enzyme activity; mode: inhibitor; concentration: 0.5 µM; baseline: control
target,remaining activity
"MAP3K10 (Homo sapiens, UniProt Q02779)",92.6%
"AKT3 (Homo sapiens, UniProt Q9Y243)",95.8%
"MAPK13 (Homo sapiens, UniProt O15264)",96.2%
"Cyclin-dependent kinase 9, with cyclin T1 (CDK9, Homo sapiens, UniProt P50750)",96.4%
"LRRK2 (Homo sapiens, UniProt Q5S007)",98.2%
"NEK4 (Homo sapiens, UniProt P51957)",95.7%
"PRKCI (Homo sapiens, UniProt P41743)",97.1%
"IRAK4 (Homo sapiens, UniProt Q9NWZ3)",103%
"CSNK2A1 (Homo sapiens, UniProt P68400)",98.1%
"STK38 (Homo sapiens, UniProt Q15208)",100%
"MAPK12 (Homo sapiens, UniProt P53778)",96.2%
"LYN (Homo sapiens, UniProt P07948)",98.8%
"PRKCD (Homo sapiens, UniProt Q05655)",94%
"CSNK1A1 (Homo sapiens, UniProt P48729)",88.4%
"MKNK2 (Homo sapiens, UniProt Q9HBH9)",100%
"KIT (Homo sapiens, UniProt P10721)",86.5%
"WNK2 (Homo sapiens, UniProt Q9Y3S1)",107%
"MAP4K2 (Homo sapiens, UniProt Q12851)",98.3%
"CHEK1 (Homo sapiens, UniProt O14757)",106%
"MAP2K6 (Homo sapiens, UniProt P52564)",93.2%
"PLK2 (Homo sapiens, UniProt Q9NYY3)",97%
"EPHA5 (Homo sapiens, UniProt P54756)",118%
"BTK (Homo sapiens, UniProt Q06187)",87.5%

# Some of these lines once more (series 4):
target,remaining activity
"PRKCI (Homo sapiens, UniProt P41743)",97.1%
"IRAK4 (Homo sapiens, UniProt Q9NWZ3)",103%
"CSNK2A1 (Homo sapiens, UniProt P68400)",98.1%
"STK38 (Homo sapiens, UniProt Q15208)",100%
"MAPK12 (Homo sapiens, UniProt P53778)",96.2%
